# Measurements gathered from unrelated publications.
# Compare with care: the assays were run in different laboratories. ± marks the error that the study gave.
Molecule,test,test system,conditions,how to read,quantity,result
CN(C)CCN(Cc1ccccc1)C(=O)c1cc(-c2ccc(F)cc2)n2nc(C(C)(C)C)cc2n1,contextual fear conditioning,Tg6799 and wild-type mice,"dose not given, 3 months",,baseline freezing,no effect
CS(C)(=O)=Nc1ccc(-c2ccc(-c3nc4cc(O[C@@H]5CO[C@H]6[C@@H]5OC[C@H]6O)[nH]c4cc3F)cc2)cc1,,"ob/ob mouse, AMLN diet NASH model","oral, 5 mg/kg daily, 8 weeks",reference: vehicle,liver weight,decreased
COc1ccc([N+](=O)[O-])cc1NC(=O)CCC(=O)[O][Zn][O]C(=O)CCC(=O)Nc1cc([N+](=O)[O-])ccc1OC.c1ccncc1,ABTS,,62.5 µg/mL,,ABTS radical scavenging,65.24 ± 0.38%
O=C(O)CCCC(=O)O,,,500 µg/mL,,ABTS radical scavenging,75.9 ± 1.81%
CCCCCCCC/C=C\CCCCCCCCOP(O)(O)=S.N,,C57BL/6 mouse,"subcutaneous, 1 mg/kg, 24 h after irradiation, added: 8.6 Gy total-body irradiation",,delay of death,4 days
CC[C@H](C)[C@H](NC(=O)[C@H](Cc1c[nH]c2ccccc12)NC(=O)[C@H](CCCNC(=N)N)NC(=O)[C@H](CCCCN)NC(=O)[C@H](CC(C)C)NC(=O)[C@H](CC(=O)O)NC(=O)[C@H](Cc1ccccc1)NC(=O)[C@H](C)NC(=O)[C@H](Cc1ccc(O)cc1)NC(=O)[C@H](CC(N)=O)NC(=O)[C@H](Cc1ccc(O)cc1)NC(=O)[C@H](CCCNC(=N)N)NC(=O)[C@H](Cc1ccc(O)cc1)NC(=O)[C@H](Cc1ccc(O)cc1)NC(=O)[C@@H](NC(=O)[C@H](CC(C)C)NC(=O)[C@H](C)NC(=O)[C@H](CC(N)=O)NC(=O)[C@H](Cc1ccc(O)cc1)NC(C)=O)[C@@H](C)CC)C(=O)N[C@@H](Cc1ccc(O)cc1)C(=O)N[C@@H](CC(C)C)C(N)=O,item: HA-02 tetramer,"tetramer+ CD4 T cells, PBMC, healthy adults, HLA-DRB1*0101","dose not given, CD62L−CD45RA+/− or CD62L+CD45RA−",,antigen-experienced T cells,61.1%
O=c1c(O)c(-c2cc(O)ccc2O)oc2cc(O)cc(O)c12,,,62.5 µg/mL,,ABTS radical scavenging,49.7 ± 1.06%
CC(C)C[C@H](NC(=O)[C@H](Cc1ccccc1)NC(=O)CNC(=O)CNC(=O)[C@@H](N)Cc1ccc(O)cc1)C(=O)N[C@@H](CCCNC(=N)N)C(=O)N[C@@H](CCCNC(=N)N)C(=O)N[C@@H](CCC(N)=O)C(=O)N[C@@H](Cc1ccccc1)C(=O)O,,C57BL/6 mouse striatal membranes,concentration not given,reference: basal,stimulation,2.3 ± 0.1 fold
COc1ccc2c(c1)C(C)(C)C(/C=C/C1=C(Oc3ccc(C(=O)NCCCCOc4cc(CN(Cc5ccccn5)Cc5ccccn5)cc(CN(Cc5ccccn5)Cc5ccccn5)c4)cc3)C(=C/C=C3/N(CCCCS(=O)(=O)[O-])c4ccc(OC)cc4C3(C)C)CCC1)=[N+]2CCCCS(=O)(=O)[O-].O=[N+]([O-])O.O=[N+]([O-])[O-].O=[N+]([O-])[O-].O=[N+]([O-])[O-].[Zn+2].[Zn+2],photoacoustic imaging,"BALB/c mouse S. aureus myositis, infected muscle","intravenous, dose not given, 12 h",reference: infected over vehicle control muscle,target-to-non-target ratio,2.4 ± 0.49
CC[C@H](C)[C@H](NC(=O)[C@@H](NC(=O)[C@H](CC(=O)O)NC(C)=O)[C@@H](C)O)C(=O)N[C@@H](CCCNC(=N)N)C(=O)N[C@@H](CC(C)C)C(=O)N[C@@H](CC(C)C)C(=O)N[C@@H](Cc1ccccc1)C(=O)N[C@@H](CCC(N)=O)C(=O)N[C@@H](CC(C)C)C(=O)N[C@@H](CCSC)C(=O)N[C@@H](CCCNC(=N)N)C(=O)N1CCC[C@H]1C(=O)N1CCC[C@H]1C(=O)N[C@@H](CC(N)=O)C(=O)N[C@@H](CCSC)C(=O)N[C@H](C(=O)N1CCC[C@H]1C(=O)N[C@@H](C)C(=O)N[C@H](C(=O)N[C@@H](CC(N)=O)C(=O)N[C@@H](C)C(N)=O)C(C)C)[C@@H](C)O,item: HA-52 tetramer,"tetramer+ CD4 T cells, PBMC, healthy adults, HLA-DRB1*0101","dose not given, CD62L−CD45RA+/− or CD62L+CD45RA−",,antigen-experienced T cells,16.5%
CCCCCCOP(=O)(O)Oc1c2c(c(OP(=O)(O)OCCCCCC)c3c1C1CC3c3cc4c(cc31)C1CC4c3ccccc31)C1CC2c2cc3c(cc21)C1CC3c2ccccc21,liposome dye leakage,liposomes 200 nm,"30 min, added: carboxyfluorescein 50 mM",,EC50,6.5 µM
N[C@@H](Cc1ccc(O)cc1)C(=O)N1CCC[C@H]1C(=O)NCC(=O)NCC(=O)O,"diketopiperazine formation, transition state theory",1-propanol,"concentration not given, 70, 80, 90 °C, 0.5% acetic acid",,enthalpy of activation,17.9 ± 3.59 kcal/mol
COC[C@@H](NC(C)=O)C(=O)NCc1ccc(OCc2ccc(Cl)cc2)cc1,6 Hz seizures,mouse,intraperitoneal,,ED50,7.6 mg/kg
N=C(N)NCCC[C@H](NC(=O)[C@H](CCCNC(=N)N)NC(=O)[C@H](CCCNC(=N)N)NC(=O)[C@H](CCC(N)=O)NC(=O)[C@H](CCCNC(=N)N)NC(=O)[C@H](CCCNC(=N)N)NC(=O)[C@H](CCCCN)NC(=O)[C@H](CCCCN)NC(=O)[C@H](CCCNC(=N)N)NC(=O)[C@H](Cc1c[nH]c2ccccc12)NC(=O)[C@H](Cc1c[nH]c2ccccc12)NC(=O)[C@@H](N)CSSC[C@H](N)C(=O)N[C@@H](Cc1c[nH]c2ccccc12)C(=O)N[C@@H](Cc1c[nH]c2ccccc12)C(=O)N[C@@H](CCCNC(=N)N)C(=O)N[C@@H](CCCCN)C(=O)N[C@@H](CCCCN)C(=O)N[C@@H](CCCNC(=N)N)C(=O)N[C@@H](CCCNC(=N)N)C(=O)N[C@@H](CCC(N)=O)C(=O)N[C@@H](CCCNC(=N)N)C(=O)N[C@@H](CCCNC(=N)N)C(=O)N[C@@H](CCCNC(=N)N)C(=O)NCC(N)=O)C(=O)NCC(N)=O,,"ROSA26-LSL-tdTomato mice, sensorimotor cortex","intracortical, 200 µM, region 2, added: TAT-Cre 40 µM",,tdTomato-positive neurons,~50%
CCN(Cc1ccccc1)C(=O)CCc1nc(CN2CCN(C(=O)Cc3ccc(OC)c(OC)c3)CC2)no1,current clamp,"L4-L6 DRG neurons, rat CCI model",1 µM,,rheobase,375 ± 41.2 pA
CCc1nnc(-c2c(OC)cc(-c3cnc4cc(-c5cnn(C)c5)ccn34)cc2OC)o1,"RT-qPCR, item: Acp5","male C57BL/6J mouse, cortical bone","oral gavage, dose not given, 3 wk once daily",reference: vehicle,mRNA level,increased
somatostatin,,"Sprague-Dawley rat, streptozotocin-induced diabetes, retina","eye drops, 10 mg/mL, score 1",,GFAP-positive glial activation,50%
CC(C)CCOP(=O)(O)Oc1c2c(c(OP(=O)(O)OCCC(C)C)c3c1C1CC3c3cc4c(cc31)C1CC4c3ccccc31)C1CC2c2cc3c(cc21)C1CC3c2ccccc21,liposome dye leakage,liposomes 200 nm,"30 min, added: carboxyfluorescein 50 mM",,EC50,4.4 µM
O=C(O)/C=C/c1ccc(O)cc1,,,500 µg/mL,,ABTS radical scavenging,75.5 ± 1.2%
CSCCNC(=O)CCC(C)C1CCC2C3C(O)CC4CC(O)CCC4(C)C3CCC12C (stereo not drawn),item: Shp,"SPF mice, ileum","oral gavage, dose not given",reference: vehicle,mRNA level,decreased
CC[C@H](C)[C@H](NC(=O)[C@H](CCCNC(=N)N)NC(=O)[C@H](CCC(N)=O)NC(=O)[C@H](CC(=O)O)NC(=O)[C@H](CC(C)C)NC(=O)[C@H](CC(C)C)NC(=O)[C@H](CC(N)=O)NC(=O)[C@H](Cc1ccccc1)NC(=O)[C@H](CC(=O)O)NC(=O)[C@@H](NC(=O)[C@@H](NC(=O)[C@H](CC(N)=O)NC(=O)CNC(=O)[C@H](CO)NC(C)=O)C(C)C)[C@@H](C)CC)C(=O)N[C@H](C(=O)N[C@@H](Cc1c[nH]c2ccccc12)C(=O)N[C@@H](CCC(N)=O)C(=O)N[C@@H](CC(N)=O)C(=O)N[C@@H](Cc1c[nH]c2ccccc12)C(=O)N[C@@H](Cc1ccc(O)cc1)C(=O)N[C@@H](C)C(N)=O)[C@@H](C)CC,item: HA-02 tetramer,"tetramer+ CD4 T cells, PBMC, healthy adults, HLA-DRB1*0101","dose not given, CD62L−CD45RA+/− or CD62L+CD45RA−",,antigen-experienced T cells,53.8%
C[C@H](NC(=O)[C@H](CCCCN)NC(=O)[C@H](CCCCN)NC(=O)[C@H](CCC(=O)O)NC(=O)[C@@H]1CCCN1)C(=O)N[C@@H](CCCCN)C(=O)N[C@@H](CCCCN)C(=O)N[C@@H](CCCCN)C(=O)O,Griess,"RAW264.7, mouse","1000 µg/mL, 24 h, added: heat-killed Cutibacterium acnes 100 µg/mL",reference: no peptide control,NO production,44.9%
O=C(O)/C=C/c1cc(O)cc(O)c1,,,1000 µg/mL,,ABTS radical scavenging,84.1 ± 2.11%
Cc1ccc(/C=C/C(=O)O)cc1-c1cc2c(cc1C)C(C)(C)CCC2(C)C,"RNA sequencing, item: Inmt mRNA","rat, brain","dose not given, 24 h, single dose",reference: vehicle,log2 fold change,-0.41

# Some of these lines once more:
Molecule,test,test system,conditions,how to read,quantity,result
COc1ccc([N+](=O)[O-])cc1NC(=O)CCC(=O)[O][Zn][O]C(=O)CCC(=O)Nc1cc([N+](=O)[O-])ccc1OC.c1ccncc1,ABTS,,62.5 µg/mL,,ABTS radical scavenging,65.24 ± 0.38%
O=C(O)CCCC(=O)O,,,500 µg/mL,,ABTS radical scavenging,75.9 ± 1.81%
